Published values pooled from the literature.
Protocols differ between the studies behind these lines.

`N[C@@H]1c2ccccc2OC12CCN(c1cnc3c(N4CCCc5ncccc54)n[nH]c3n1)CC2` — result for “patients with serious TEAE”: 75% (advanced solid tumour patients; oral, 150 mg once daily).
Under “patients with adverse event”, `CN1CC[C@@H](c2c(O)cc(O)c3c(=O)cc(-c4ccc(C(F)(F)F)cc4Cl)oc23)[C@@H]1CO` is recorded as 0% (measured: Epistaxis; relapsed AML; oral, 200 mg, grade 3-4, intermittent dosing).
Under “patients with ADR”, `C=CC(=O)N1CC[C@H](n2nc(C#Cc3cc(OC)cc(OC)c3)c3c(N)ncnc32)C1` is recorded as 15% (hyperphosphataemia patients; oral, once daily, grade ≥3, phosphate binder users).
`COc1ccc(-c2c(-c3ccc(C#N)c(F)c3)nc(N3CCC(N)CC3)n(C)c2=O)cc1F` — result for “patients with TRAE any grade”: 0% (measured: conjunctival hemorrhage; relapsed/refractory MZL patients; oral, 60 mg, dose expansion).
`CCNCCCNC/C=C\CNCCCNCC` — result for “patients with treatment-related TEAE”: 28.3% (advanced refractory solid tumour patients; intravenous, dose not given, nausea).
Under “patients with adverse event”, `COc1nnc2ccc(N3CCC(c4ccc(OCCN5CCN(C)C(=O)[C@H]5C)cc4)CC3)nn12` is recorded as 35.3% (measured: fatigue; patients with solid tumours or lymphoma; oral, dose not given, all grades, treatment-related).
`COc1cc2c(Oc3ccc4[nH]c(C)cc4c3F)ccnc2cc1OCC1(N)CC1` — result for “patients with grade 3 Cholesterol elevation”: 0% (paediatric refractory sarcoma patients; 8 mg/kg).
Under “patients with non-cardiac chest pain”, `C[C@@H]1OC(=O)NN=C1c1ccc(-c2ccc(F)cc2)c(C(F)(F)F)c1` is recorded as 0% (patients, phase I trial; oral, 5 mg once daily, worst grade 1).
`CO[C@H]1C[C@@H]2CC[C@@H](C)[C@@](O)(O2)C(=O)C(=O)N2CCCC[C@H]2C(=O)O[C@H]([C@H](C)C[C@@H]2CC[C@@H](OC(=O)NCCOCCOCCOCCOCCOCCOCCOCCOCCC(=O)N3CCc4cc(Cn5nc(-c6ccc7oc(N)nc7c6)c6c(N)ncnc65)ccc4C3)[C@H](OC)C2)C[C@@H](O)[C@H](C)/C=C(\C)[C@@H](O)[C@@H](OC)C(=O)[C@H](C)C[C@H](C)/C=C/C=C/C=C/1C` — result for “patients with AE”: 12% (measured: TEAE leading to discontinuation; patients with advanced solid tumours; intravenous, dose not given, all patients, weekly).
Under “patients with adverse events”, `Nc1nc2cc(-c3ccc4ncc(C(=O)N5CCOCC5)n4c3)ccc2o1` is recorded as 7% (measured: Anemia, any cause, grade ≥3; patients with advanced solid tumours; dose not given).
`C=CCNc1c(O)cc2c(O)c1C[C@@H](C)C[C@H](OC)[C@H](O)[C@@H](C)/C=C(\C)[C@H](OC(N)=O)[C@@H](OC)/C=C\C=C(/C)C(=O)N2`: “patients with AST increase” 0% (unresectable or metastatic sarcoma; intravenous, 300 mg/m^2, grade 3-4 lab change).
`Cc1nc(-c2cnc(NC(C)C)n(C)c2=O)ccc1Oc1ccnc(-c2cnn(C)c2)c1` — result for “patients with TEAE leading to discontinuation”: 6% (patients with TGCT; oral, dose not given, NCI-CTCAE v4.03).
`CCN(CCO)CCCC(C)Nc1ccnc2cc(Cl)ccc12` (centres unmarked) — result for “patients with adverse event”: 14% (measured: Anorexia grade 3; newly diagnosed glioblastoma patients; oral, 400 mg/dose, with radiotherapy and temozolomide).
Under “patients with hypertriglyceridaemia”, `CC(=O)c1c(C)c2cnc(Nc3ccc(C4CCN(CCS(C)(=O)=O)CC4)cn3)nc2n(C2CCCC2)c1=O` is recorded as 0% (HR+/HER2- advanced breast cancer patients; oral, 100 mg bid, grade 3/4, monotherapy arm).
For `CC(C)C[C@H](NC(=O)[C@@H](Cc1c[nH]c2ccccc12)NC(=O)[C@H](Cc1ccc(O)cc1)NC(=O)[C@H](CO)NC(=O)[C@H](Cc1c[nH]c2ccccc12)NC(=O)[C@H](Cc1c[nH]cn1)NC(=O)[C@@H]1CCC(=O)N1)C(=O)N[C@@H](CCCNC(=N)N)C(=O)N1CCC[C@H]1C(=O)NCC(N)=O`, “patients who died” read 0% (Chinese CPP children, overall; intramuscular, 22.5 mg, 12 months, day 1, month 6).
`Cn1cc(-c2nc(N[C@@H]3CCCC[C@@H]3N)c(F)c3c2C(=O)NC3)cn1` — result for “patients with gingival bleeding”: 9% (relapsed/refractory AML patients; oral, dose not given, phase Ib trial, all doses).
Under “patients with ≥1 TEAE”, `O=C1Nc2cc3[nH]nc(-c4ccncc4)c3cc2CN1Cc1ccccc1` is recorded as 100% (CTCAE v4.03; advanced solid tumour patients; intravenous, 11.3 mg/kg).
